Assay results collected from several papers.
± marks the error that the study gave.
lecB: Fucose-binding lectin PA-IIL (lecB, Pseudomonas aeruginosa, UniProt Q9HYN5)
FGFR1: Fibroblast growth factor receptor 1 (FGFR1, Homo sapiens, UniProt P11362)
Sequence of UniProt P11362 (whole entry, looked up): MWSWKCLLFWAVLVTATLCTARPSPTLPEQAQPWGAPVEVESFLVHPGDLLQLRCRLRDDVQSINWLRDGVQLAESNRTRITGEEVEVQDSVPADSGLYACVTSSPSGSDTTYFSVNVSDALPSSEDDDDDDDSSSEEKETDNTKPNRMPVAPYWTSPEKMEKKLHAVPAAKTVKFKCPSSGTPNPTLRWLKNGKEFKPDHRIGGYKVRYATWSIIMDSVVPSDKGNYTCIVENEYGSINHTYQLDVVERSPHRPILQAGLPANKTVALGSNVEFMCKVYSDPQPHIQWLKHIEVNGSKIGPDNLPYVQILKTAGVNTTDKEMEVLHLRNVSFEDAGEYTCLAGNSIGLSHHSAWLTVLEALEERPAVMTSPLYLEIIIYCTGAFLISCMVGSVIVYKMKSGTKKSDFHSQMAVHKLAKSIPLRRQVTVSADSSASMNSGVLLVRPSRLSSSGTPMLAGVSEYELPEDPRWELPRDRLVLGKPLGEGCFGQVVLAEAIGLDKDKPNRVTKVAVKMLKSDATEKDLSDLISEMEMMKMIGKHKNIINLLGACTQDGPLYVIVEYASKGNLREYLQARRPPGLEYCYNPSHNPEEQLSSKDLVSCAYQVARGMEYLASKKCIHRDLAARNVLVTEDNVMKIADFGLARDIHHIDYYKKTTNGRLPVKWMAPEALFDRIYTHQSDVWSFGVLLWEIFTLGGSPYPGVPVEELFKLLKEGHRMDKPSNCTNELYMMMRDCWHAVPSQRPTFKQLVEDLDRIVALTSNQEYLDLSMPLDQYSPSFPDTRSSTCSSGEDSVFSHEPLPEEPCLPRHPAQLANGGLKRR
Sequence of UniProt P08238 (whole entry, looked up): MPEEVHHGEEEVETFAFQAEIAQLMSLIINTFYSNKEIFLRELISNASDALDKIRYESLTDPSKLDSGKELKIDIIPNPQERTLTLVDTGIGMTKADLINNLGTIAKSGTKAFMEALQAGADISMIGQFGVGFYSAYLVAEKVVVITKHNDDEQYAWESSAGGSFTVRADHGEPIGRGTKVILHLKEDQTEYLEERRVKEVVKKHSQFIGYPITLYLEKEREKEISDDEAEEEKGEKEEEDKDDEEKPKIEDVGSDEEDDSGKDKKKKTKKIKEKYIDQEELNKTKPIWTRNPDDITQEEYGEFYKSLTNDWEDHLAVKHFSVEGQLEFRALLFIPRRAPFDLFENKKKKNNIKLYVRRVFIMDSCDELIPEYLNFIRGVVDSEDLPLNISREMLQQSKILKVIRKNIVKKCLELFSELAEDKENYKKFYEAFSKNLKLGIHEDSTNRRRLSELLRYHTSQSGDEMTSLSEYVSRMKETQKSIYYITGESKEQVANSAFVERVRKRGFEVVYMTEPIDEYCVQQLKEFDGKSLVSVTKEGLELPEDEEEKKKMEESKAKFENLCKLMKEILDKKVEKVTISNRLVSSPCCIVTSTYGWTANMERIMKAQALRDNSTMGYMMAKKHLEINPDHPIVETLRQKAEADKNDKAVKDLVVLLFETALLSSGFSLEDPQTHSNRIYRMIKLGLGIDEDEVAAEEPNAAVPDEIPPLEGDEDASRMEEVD
Sequence of UniProt Q9UER7 (55-144, looked up): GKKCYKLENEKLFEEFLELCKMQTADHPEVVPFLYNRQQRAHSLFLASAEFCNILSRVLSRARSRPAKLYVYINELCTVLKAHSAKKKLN
Sequence of UniProt Q16762 (whole entry, looked up): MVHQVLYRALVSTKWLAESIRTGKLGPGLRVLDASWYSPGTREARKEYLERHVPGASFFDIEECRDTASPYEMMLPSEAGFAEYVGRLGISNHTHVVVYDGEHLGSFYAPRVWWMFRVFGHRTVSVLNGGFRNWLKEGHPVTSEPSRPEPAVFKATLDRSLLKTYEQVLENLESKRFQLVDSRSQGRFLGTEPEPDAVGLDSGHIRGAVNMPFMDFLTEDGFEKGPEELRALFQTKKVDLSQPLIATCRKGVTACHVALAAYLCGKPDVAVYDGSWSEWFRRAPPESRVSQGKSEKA
Sequence of UniProt P21564 (whole entry, unmodified, looked up): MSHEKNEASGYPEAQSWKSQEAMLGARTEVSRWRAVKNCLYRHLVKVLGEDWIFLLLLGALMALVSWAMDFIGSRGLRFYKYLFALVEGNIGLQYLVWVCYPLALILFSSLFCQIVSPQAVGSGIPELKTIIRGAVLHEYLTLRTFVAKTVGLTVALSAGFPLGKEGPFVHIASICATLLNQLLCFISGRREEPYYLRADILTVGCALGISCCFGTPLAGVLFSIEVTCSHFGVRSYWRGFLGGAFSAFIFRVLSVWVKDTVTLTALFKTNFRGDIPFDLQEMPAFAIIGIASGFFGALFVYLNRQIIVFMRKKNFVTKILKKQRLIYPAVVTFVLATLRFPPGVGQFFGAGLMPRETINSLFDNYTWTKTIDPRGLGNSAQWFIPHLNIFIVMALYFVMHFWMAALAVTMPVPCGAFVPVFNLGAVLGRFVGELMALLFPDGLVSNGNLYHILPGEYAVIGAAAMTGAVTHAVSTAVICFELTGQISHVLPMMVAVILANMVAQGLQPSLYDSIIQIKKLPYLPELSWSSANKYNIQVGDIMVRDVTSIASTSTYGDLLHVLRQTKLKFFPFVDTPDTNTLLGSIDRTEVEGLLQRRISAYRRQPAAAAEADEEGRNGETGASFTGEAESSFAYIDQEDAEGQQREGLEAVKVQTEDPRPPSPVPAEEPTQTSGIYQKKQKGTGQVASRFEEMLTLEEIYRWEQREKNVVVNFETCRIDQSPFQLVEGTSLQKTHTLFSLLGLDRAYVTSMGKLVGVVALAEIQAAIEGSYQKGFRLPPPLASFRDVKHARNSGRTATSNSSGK
Sequence of UniProt P09104 (whole entry, looked up): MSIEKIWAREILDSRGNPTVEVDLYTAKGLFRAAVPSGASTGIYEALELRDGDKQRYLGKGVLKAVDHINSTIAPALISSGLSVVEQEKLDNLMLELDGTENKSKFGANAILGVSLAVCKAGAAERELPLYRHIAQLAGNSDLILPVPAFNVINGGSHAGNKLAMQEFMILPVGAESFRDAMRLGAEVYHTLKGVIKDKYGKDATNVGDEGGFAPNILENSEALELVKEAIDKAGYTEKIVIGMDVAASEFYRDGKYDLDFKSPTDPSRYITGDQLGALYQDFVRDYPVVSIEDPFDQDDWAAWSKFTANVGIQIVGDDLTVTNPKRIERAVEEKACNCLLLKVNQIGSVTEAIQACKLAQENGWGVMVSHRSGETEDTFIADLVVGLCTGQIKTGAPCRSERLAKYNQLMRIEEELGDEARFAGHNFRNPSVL
Sequence of UniProt P51654 (whole entry, looked up): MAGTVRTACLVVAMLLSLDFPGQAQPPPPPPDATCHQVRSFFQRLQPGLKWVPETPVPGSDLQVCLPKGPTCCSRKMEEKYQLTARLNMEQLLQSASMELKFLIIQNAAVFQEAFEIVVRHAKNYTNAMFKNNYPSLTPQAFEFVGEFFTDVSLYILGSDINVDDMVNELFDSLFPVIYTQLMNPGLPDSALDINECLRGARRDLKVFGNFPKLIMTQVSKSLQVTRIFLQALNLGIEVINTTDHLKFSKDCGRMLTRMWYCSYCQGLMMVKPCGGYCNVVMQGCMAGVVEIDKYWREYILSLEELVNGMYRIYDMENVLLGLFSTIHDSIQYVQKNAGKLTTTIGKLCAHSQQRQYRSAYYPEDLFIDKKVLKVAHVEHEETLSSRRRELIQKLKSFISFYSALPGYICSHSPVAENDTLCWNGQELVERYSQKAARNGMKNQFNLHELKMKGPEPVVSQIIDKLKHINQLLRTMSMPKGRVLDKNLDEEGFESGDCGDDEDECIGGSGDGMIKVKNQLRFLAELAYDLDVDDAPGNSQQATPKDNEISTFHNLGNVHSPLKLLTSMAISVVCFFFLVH
Sequence of UniProt P25440 (whole entry, unmodified, looked up): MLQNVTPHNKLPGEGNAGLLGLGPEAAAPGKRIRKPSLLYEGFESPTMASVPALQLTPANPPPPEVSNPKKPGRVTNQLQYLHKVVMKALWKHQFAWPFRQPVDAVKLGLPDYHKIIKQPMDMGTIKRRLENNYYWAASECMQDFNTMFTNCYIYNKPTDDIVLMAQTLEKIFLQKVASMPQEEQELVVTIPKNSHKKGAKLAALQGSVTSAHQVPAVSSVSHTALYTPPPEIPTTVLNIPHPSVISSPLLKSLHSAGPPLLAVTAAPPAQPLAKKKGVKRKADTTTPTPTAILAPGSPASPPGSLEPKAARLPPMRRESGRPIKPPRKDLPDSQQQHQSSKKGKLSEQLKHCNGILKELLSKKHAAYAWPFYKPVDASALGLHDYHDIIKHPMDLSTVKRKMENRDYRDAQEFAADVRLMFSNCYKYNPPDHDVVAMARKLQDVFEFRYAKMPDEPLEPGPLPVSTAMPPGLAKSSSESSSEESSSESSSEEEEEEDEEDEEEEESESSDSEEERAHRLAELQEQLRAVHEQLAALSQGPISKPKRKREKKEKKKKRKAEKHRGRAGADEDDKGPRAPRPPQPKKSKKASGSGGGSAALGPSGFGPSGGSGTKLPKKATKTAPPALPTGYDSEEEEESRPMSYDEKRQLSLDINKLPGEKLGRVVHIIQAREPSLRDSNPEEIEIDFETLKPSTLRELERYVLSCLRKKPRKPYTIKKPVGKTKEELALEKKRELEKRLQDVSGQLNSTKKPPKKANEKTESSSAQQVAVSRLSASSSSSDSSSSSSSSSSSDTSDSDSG
Sequence of UniProt Q06911 (whole entry, looked up): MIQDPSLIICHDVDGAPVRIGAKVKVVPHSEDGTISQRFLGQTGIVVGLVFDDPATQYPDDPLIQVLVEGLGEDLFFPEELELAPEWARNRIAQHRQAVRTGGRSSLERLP

CCC(C(=O)OC)C1N=C(c2ccc(Cl)cc2)c2cc(OC)ccc2-n2c(C)nnc21 (stereo not shown)  Kd (Bromodomain-containing protein 2, tandem bromodomains (BRD2, Homo sapiens, UniProt P25440, L110A/L383A); binding, isothermal titration calorimetry; 30 °C, tandem double L/A mutant): 0.024 µM
CC[C@H](C)[C@H]1C(=O)O[C@H](C(C)C)C(=O)N(C)[C@@H]([C@@H](C)CC)C(=O)O[C@H](C(C)C)C(=O)N(C)[C@@H]([C@@H](C)CC)C(=O)O[C@H](C(C)C)C(=O)N1C  Kd (HSP90AB1 (Homo sapiens, UniProt P08238); binding, SPR): 15.9 µM
CC[C@H](C)[C@H](NC(=O)[C@H](Cc1c[nH]cn1)NC(=O)[C@H](CCCCNC(=O)[C@@H](NC(=O)[C@H](CCCCN)NC(=O)CSC[C@H](NC(=O)[C@H](Cc1ccccc1)NC(=O)[C@H](CCCCNC(=O)[C@H](CC(C)C)NC(=O)[C@@H]1CCCN1C(=O)[C@H](CCCCN)NC(=O)C[C@@H]1O[C@@H](C)[C@@H](O)[C@@H](O)[C@@H]1O)NC(=O)[C@H](CC(C)C)NC(=O)[C@@H]1CCCN1C(=O)[C@H](CCCCN)NC(=O)c1ccc(O[C@@H]2O[C@H](CO)[C@H](O)[C@H](O)[C@H]2O)cc1)C(N)=O)[C@@H](C)CC)NC(=O)[C@@H](NC(=O)[C@H](CCCCN)NC(=O)CSC[C@H](NC(=O)[C@H](Cc1ccccc1)NC(=O)[C@H](CCCCNC(=O)[C@H](CC(C)C)NC(=O)[C@@H]1CCCN1C(=O)[C@H](CCCCN)NC(=O)C[C@@H]1O[C@@H](C)[C@@H](O)[C@@H](O)[C@@H]1O)NC(=O)[C@H](CC(C)C)NC(=O)[C@@H]1CCCN1C(=O)[C@H](CCCCN)NC(=O)c1ccc(O[C@@H]2O[C@H](CO)[C@H](O)[C@H](O)[C@H]2O)cc1)C(N)=O)[C@@H](C)CC)C(N)=O  Kd (lecB; binding, ITC; pH 7.5): 0.292 µM
CSCC[C@H](NC(C)=O)C(=O)N[C@@H](CC(=O)O)C(=O)N[C@@H](CO)C(=O)N[C@@H](CCCCN)C(=O)N[C@@H](Cc1ccc(O)cc1)C(=O)N[C@H](C(=O)N[C@H](C(=O)N[C@@H](CC(C)C)C(=O)N[C@@H](Cc1ccc(O)cc1)C(=O)N[C@@H](Cc1ccc(O)cc1)C(=O)N[C@@H](CCC(N)=O)C(=O)N[C@@H](CC(C)C)C(=O)N[C@@H](Cc1c[nH]c2ccccc12)C(=O)N[C@@H](Cc1c[nH]c2ccccc12)C(=O)N[C@@H](CCCCN)C(=O)NCC(=O)N[C@@H](CO)C(=O)NCC(=O)N[C@@H](CO)C(=O)NCC(=O)N[C@@H](CO)C(=O)N[C@@H](CC(=O)O)C(=O)N[C@@H](Cc1ccc(O)cc1)C(=O)N[C@@H](CCCCN)C(=O)N[C@@H](CC(=O)O)C(=O)N[C@@H](CC(=O)O)C(=O)N[C@@H](CC(=O)O)C(=O)N[C@@H](CC(=O)O)C(=O)N[C@@H](CCCCN)C(=O)N[C@@H](CCCCN=[N+]=[N-])C(N)=O)[C@@H](C)O)C(C)C  Kd (FGFR1; binding, BLI): > 10 µM
CC(C)[C@H](NC(=O)[C@@H](NC(=O)[C@H](CO)NC(=O)[C@H](CS)NC(=O)[C@H](CC(=O)O)NC(=O)[C@@H]1CCCN1C(=O)[C@H](CCCCN)NC(=O)[C@@H](N)CO)[C@@H](C)O)C(=O)NCC(=O)NCC(=O)N1CCC[C@H]1C(=O)N[C@@H](CCCNC(=N)N)C(=O)O  Kd (Gamma-enolase (ENO2, Homo sapiens, UniProt P09104); biolayer interferometry): 1 µM
N=C(N)NCCC[C@H](NC(=O)[C@H](Cc1ccccc1)NC(=O)[C@@H]1CCCN1C(=O)[C@H](CO)NC(=O)[C@H](Cc1ccccc1)NC(=O)CNC(=O)[C@@H]1CCCN1C(=O)[C@@H]1CCCN1C(=O)[C@@H](N)CCCNC(=N)N)C(=O)N[C@@H](CCCCNS(=O)(=O)c1ccc(C2=c3cc4c5c(c3Oc3c2cc2c6c3CCCN6CCC2)CCC[N+]=5CCC4)c(S(=O)(=O)[O-])c1)C(=O)O  Kd (Oligopeptide-binding protein OppA (oppA, Lactococcus lactis subsp. lactis, UniProt Q07741); binding, fluorescence anisotropy; pH 6.5, 18 °C, together with: dye-labelled peptide): 13 ± 0.5 µM
CSCC[C@H](NC(C)=O)C(=O)N[C@@H](CCC(N)=O)C(=O)N[C@H](C(=O)N[C@H]1CSCc2cccc(c2)CSC[C@@H](C(=O)NCC(=O)N[C@@H](Cc2ccc(O)cc2)C(=O)NCC(=O)N[C@@H](CO)C(=O)NCC(=O)N[C@@H](CO)C(=O)NCC(=O)N[C@@H](CO)C(=O)N[C@@H](CC(=O)O)C(=O)N[C@@H](Cc2ccc(O)cc2)C(=O)N[C@@H](CCCCN)C(=O)N[C@@H](CC(=O)O)C(=O)N[C@@H](CC(=O)O)C(=O)N[C@@H](CC(=O)O)C(=O)N[C@@H](CC(=O)O)C(=O)N[C@@H](CCCCN)C(N)=O)NC(=O)[C@H](CC(C)C)NC(=O)[C@H](C(C)C)NC(=O)[C@H](CC(C)C)NC(=O)[C@H](Cc2c[nH]cn2)NC(=O)[C@H](CCC(=O)O)NC(=O)[C@H](CCCCN)NC(=O)[C@H](Cc2ccccc2)NC(=O)[C@H]([C@@H](C)O)NC1=O)[C@@H](C)O  Kd (FGFR1; binding, BLI): > 10 µM
CC[C@H](C)[C@H](NC(=O)[C@H](Cc1c[nH]cn1)NC(=O)[C@H](CCCCNC(=O)[C@@H](NC(=O)[C@H](CCCCN)NC(=O)CSC[C@H](NC(=O)[C@H](Cc1ccccc1)NC(=O)[C@H](CCCCNC(=O)[C@H](CC(C)C)NC(=O)[C@@H]1CCCN1C(=O)[C@H](CCCCN)NC(=O)C[C@@H]1O[C@@H](C)[C@@H](O)[C@@H](O)[C@@H]1O)NC(=O)[C@H](CC(C)C)NC(=O)[C@@H]1CCCN1C(=O)[C@H](CCCCN)NC(=O)CCS[C@@H]1O[C@H](CO)[C@H](O)[C@H](O)[C@H]1O)C(N)=O)[C@@H](C)CC)NC(=O)[C@@H](NC(=O)[C@H](CCCCN)NC(=O)CSC[C@H](NC(=O)[C@H](Cc1ccccc1)NC(=O)[C@H](CCCCNC(=O)[C@H](CC(C)C)NC(=O)[C@@H]1CCCN1C(=O)[C@H](CCCCN)NC(=O)C[C@@H]1O[C@@H](C)[C@@H](O)[C@@H](O)[C@@H]1O)NC(=O)[C@H](CC(C)C)NC(=O)[C@@H]1CCCN1C(=O)[C@H](CCCCN)NC(=O)CCS[C@@H]1O[C@H](CO)[C@H](O)[C@H](O)[C@H]1O)C(N)=O)[C@@H](C)CC)C(N)=O  Kd (lecB; binding, ITC; pH 7.5): 0.121 µM
COc1nc(OCc2cccc(-c3ccccc3)c2C)ccc1CNCCNC(=O)CCCc1cn(CCC(=O)N[C@@H](CC(=O)O)C(=O)N[C@@H](Cc2c[nH]cn2)C(=O)N[C@@H](CC(C)C)C(=O)N[C@@H](C)C(=O)N[C@@H](CO)C(=O)N[C@@H](CC(C)C)C(=O)N[C@@H](Cc2c[nH]c3ccccc23)C(=O)N[C@@H](Cc2c[nH]c3ccccc23)C(=O)NCC(=O)N[C@H](C(=O)N[C@@H](CCC(=O)O)C(=O)N[C@@H](CC(C)C)C(=O)O)[C@@H](C)O)nn1  Kd (Glypican-3 (Homo sapiens, UniProt P51654); binding, MST): 0.348 µM
O=C1SCCC1NC(C(=O)NCc1ccccc1)C1CC1 (stereo not shown)  Kd (TST (Homo sapiens, UniProt Q16762); activator): 15.2 µM
CC[C@H](C)[C@H](NC(=O)[C@@H](N)CCCNC(=N)N)C(=O)N[C@@H](CC(N)=O)C(=O)N[C@@H](CC(N)=O)C(=O)N[C@H](C(=O)N1C[C@@H](n2cc([C]34[CH]5[CH]6[CH]7[CH]3[Fe]6754389%10[CH]4[CH]3[CH]8[CH]9[CH]4%10)nn2)C[C@H]1C(=O)N[C@@H](Cc1c[nH]c2ccccc12)C(=O)N[C@@H](CO)C(=O)N[C@@H](CCC(=O)O)C(=O)N[C@@H](C)C(=O)N[C@@H](CCSC)C(=O)N[C@@H](CCSC)C(N)=O)[C@@H](C)CC (stereo partly shown)  Kd (HIV-1 92UG037-08 gp120, clade A; SPR): 0.0163 µM
CC[C@H](C)[C@H](NC(=O)[C@H](CCC(=O)O)NC(=O)[C@H](CS)NC(=O)[C@@H](NC(=O)CNC(=O)[C@H](CO)NC(=O)[C@H](CC(C)C)NC(=O)[C@H](CO)NC(=O)[C@H](CCC(=O)O)NC(=O)[C@H](CCCNC(=N)N)NC(=O)[C@@H](NC(=O)[C@H](C)NC(=O)[C@H](CS)NC(=O)[C@H](CCCNC(=N)N)NC(=O)CNC(=O)[C@@H](NC(=O)[C@H](CCCNC(=N)N)NC(=O)[C@H](CS)NC(=O)[C@H](Cc1ccc(O)cc1)NC(=O)[C@H](CS)NC(=O)[C@@H](NC(=O)[C@H](C)N)[C@@H](C)O)[C@@H](C)O)[C@@H](C)O)C(C)C)C(=O)N[C@@H](CO)C(=O)NCC(=O)N[C@@H](CCCNC(=N)N)C(=O)N[C@@H](CC(C)C)C(=O)N[C@@H](Cc1ccc(O)cc1)C(=O)N[C@@H](CCCNC(=N)N)C(=O)N[C@@H](CC(C)C)C(=O)N[C@@H](CS)C(=O)N[C@@H](CS)C(=O)N[C@@H](CCCNC(=N)N)C(=O)O  Kd (Zn(II); metal binding; pH 7.4, one-site model, anaerobic): 0.000331 ± 0.000142 µM
C[C@@H](O)[C@H](NC(=O)[C@H](CCCCN)NC(=O)CCC(=O)O)C(=O)NCC(=O)N[C@@H](CC(=O)O)C(=O)N[C@@H](CCC(=O)O)C(=O)N[C@@H](CCCCN)C(=O)N[C@@H](CCCCN)C(=O)NCC(=O)NCC(=O)N[C@@H](Cc1ccc(O)cc1)C(=O)NCC(=O)N[C@@H](CCCNC(=N)N)C(=O)N[C@@H](CCCCN)C(=O)N[C@@H](CCCCN)C(=O)N[C@@H](CCCNC(=N)N)C(=O)N[C@@H](CCCNC(=N)N)C(=O)N[C@@H](CCC(N)=O)C(=O)N[C@@H](CCCNC(=N)N)C(=O)N[C@@H](CCCNC(=N)N)C(=O)N[C@@H](CCCNC(=N)N)C(N)=O  Kd (HSP90AA1 (Homo sapiens, UniProt P07900); binding, field-effect biosensor; pH 7.4): 16.4 ± 3.44 µM
CC[C@H](C)[C@H](NC(=O)[C@H](CCCNC(=N)N)NC(=O)[C@H](CC(N)=O)NC(=O)[C@H](CCC(=O)O)NC(=O)[C@@H]1CCCN1C(=O)[C@H](CC(=O)O)NC(=O)[C@H](CC(N)=O)NC(=O)[C@H](CC(=O)O)NC(=O)[C@H](CC(=O)O)NC(=O)[C@@H](N)CO)C(=O)N[C@@H](C)C(=O)N[C@@H](CCCCN)C(=O)N[C@@]1(C)CCCC=CCCC[C@@](C)(C(=O)N[C@@H](CCC(=O)O)C(=O)N[C@H](C(=O)N[C@@H](CCCCN)C(=O)N[C@@H](C)C(=O)N[C@@H](CC(N)=O)C(=O)N[C@@H](CC(C)C)C(=O)N[C@@H](CO)C(=O)O)[C@@H](C)CC)NC(=O)[C@H](CC(C)C)NC(=O)[C@H](CC(C)C)NC(=O)[C@H](CCSC)NC1=O  Kd (Death domain-associated protein 6, residues 55-144 (Homo sapiens, UniProt Q9UER7); isothermal titration calorimetry; pH 7.5, 25 °C): 0.18 µM
O=C(O)COc1ccc(Cl)cc1  Kd (Chloride channel protein (Torpedo marmorata, UniProt P21564, C212S); ion current, inhibitor, inside-out patch clamp; intracellular, 60 mV): ~65000 µM
CC[C@H](C)[C@H](NC(=O)CNC(C)=O)C(=O)N[C@@H](CCCNC(=N)N)C(=O)N[C@@H](CCC(=O)O)C(=O)N[C@@H](C)C(=O)N[C@H](C(=O)N[C@@H](CC(C)C)C(=O)N[C@@H](CCCNC(=N)N)C(=O)N[C@@H](C)C(=O)N[C@@H](Cc1c[nH]c2ccccc12)C(=O)N[C@@H](CCC(=O)O)C(=O)N[C@@H](CCCNC(=N)N)C(=O)N[C@@H](CCCNC(=N)N)C(=O)N[C@@H](Cc1ccc(O)cc1)C(=O)NCC(=O)N[C@@H](Cc1ccccc1)C(=O)N1CCC[C@H]1C(=O)N[C@@H](CCCNC(=N)N)C(=O)N1CCC[C@H]1C(=O)N[C@@H](CC(C)C)C(=O)N[C@@H](CCCNC(=N)N)C(=O)N[C@@H](CO)C(=O)N[C@@H](CCC(=O)O)C(N)=O)[C@@H](C)O  Kd (Antirepressor protein CarS (carS, Myxococcus xanthus, UniProt Q06911); isothermal titration calorimetry; pH 7.5, 25 °C): 0.15 ± 0.018 µM

Some of these lines once more:
CC[C@H](C)[C@H]1C(=O)O[C@H](C(C)C)C(=O)N(C)[C@@H]([C@@H](C)CC)C(=O)O[C@H](C(C)C)C(=O)N(C)[C@@H]([C@@H](C)CC)C(=O)O[C@H](C(C)C)C(=O)N1C  Kd (HSP90AB1 (Homo sapiens, UniProt P08238); binding, SPR): 15.9 µM
CCC(C(=O)OC)C1N=C(c2ccc(Cl)cc2)c2cc(OC)ccc2-n2c(C)nnc21 (stereo not shown)  Kd (Bromodomain-containing protein 2, tandem bromodomains (BRD2, Homo sapiens, UniProt P25440, L110A/L383A); binding, isothermal titration calorimetry; 30 °C, tandem double L/A mutant): 0.024 µM
